Measured values from different studies.
Each numbered part is a random draw from the data of one study; scales do not carry over between parts. Changes are numbered by the printed parent chain.

Set 1 — method: RNA Bind-n-Seq; form: RNA; sample: in vitro; tested at: 365 nM; relative to: no-protein control; reading: higher = stronger binding
Target: RNA binding protein fox-1 homolog 2, RRM domain, GST-SBP tag (RBFOX2, Homo sapiens, UniProt O43251-10, residues 100-194)
Notes: natural RNA segment, single round, ends assumed
Construct (chain): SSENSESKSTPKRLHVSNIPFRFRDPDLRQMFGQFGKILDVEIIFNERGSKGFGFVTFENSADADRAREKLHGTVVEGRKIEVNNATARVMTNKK
| Strand | RBNS enrichment (R) |
| --- | --- |
| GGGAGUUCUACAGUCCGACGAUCGGAUGGGAGGGCUCAUUUGUUGAUAAAUAGCACUAUUUUCCCACACCUCAGCCUCCUGUCCCCGUCCUGGUCUUCCCUACACAGUCUGGAGAGGGCUCUGAAAGGUCCACUGGAAUUCUCGGGUGCCAA | 0.348 |
| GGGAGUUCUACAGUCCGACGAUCUAAAGUUUCUAAGGUGCUCCUCCUCAAACUCCAUUUUUACAAUAUCCGUAUUGUAAAAUUUUCAUUUUCAGUAACACCCAGUAGAUAAUUUUUCAAAGACGAUCCUCCUCUGGAAUUCUCGGGUGCCAA | 0.349 |
| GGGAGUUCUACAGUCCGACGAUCAAGACAAAUUAGUGUUUAGUAAUUGCAUCAUCUCUGUGCUUACCUAUACAAACAUAAGUUUAUUUUAUAUGCCCAGAUGUCUACAGAGACCCUUUUUGUAAAUGUCAAGGUGGAAUUCUCGGGUGCCAA | 0.536 |
| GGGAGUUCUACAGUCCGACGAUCUCUUAAUAGCGGGAGGGGGGUAUAUUUGUGCAGUUGCACAUUUGAGUAACUAUUUUCUUUCUGUUUUCUUUUACUCUGCUUACAUUUUAUAAGUUUAAGGUCAGCUGUCAUGGAAUUCUCGGGUGCCAA | 0.632 |
| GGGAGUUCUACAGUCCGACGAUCAAGCAAGUCGGACCUCUCAGAACUUAGAGUGUGGGAACAGUUUUUUUUUUUUUUUUAAAAAAAACAAAAAACAAACGACCAUUUCUCUAAGCCAAGUUUCUUUUAGAGACUGGAAUUCUCGGGUGCCAA | 0.512 |
| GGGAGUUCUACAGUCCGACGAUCAGCUCUGUGCACCUGUGUGUGAUACCUCACACUCGUGCUUUGUCCUCCACUGUCUAUGUAGGUUGUGGGUGUGGGGAGGUUGAGGUAGAGGGAAGAGGGUCGAGAGGGUUUGGAAUUCUCGGGUGCCAA | 0.666 |
| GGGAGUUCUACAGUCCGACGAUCACAAGUUGUUAAAACAUUUAAUAUUAUAUAGGAUAUUGCUAAUUGUGUAUAUGUUGGUUUAAUUAAUAAUAUGUACUAAGAAUGUCCUUAUUCUUGUGGUUAAAAACCUGUGGAAUUCUCGGGUGCCAA | 0.403 |
| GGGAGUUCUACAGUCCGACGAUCUGCUUGCCACUGGAGGAACAGAUGGCUACGUCCGUGUCUGGAAGGUGCCCAGCCUGGAGAAGGUUCUGGAGUUCAAAGCCCACGAAGGGGAGAUUGAAGACCUGGCUUUAUGGAAUUCUCGGGUGCCAA | 1.09 |
| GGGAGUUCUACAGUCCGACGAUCCCCGCUGUCGGGUCUCUCUAGGCCUAUGAACCACAAAGCAGGGAAGUGGGCACGUUCUCUCGGGGUGGCUCACAGCUUUGAACCUGCCAAAGGACCCCUCGACUGGCCACUGGAAUUCUCGGGUGCCAA | 0.339 |
| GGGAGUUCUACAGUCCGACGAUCCUUUCCUGCAAACCCAUUUCCAGCUCCUAGUAGCUUUCCUCCCAAAGGCUUUCUUUCCAAUCCUUUAUAGCUUUGGAGACGCCUCCCCAAUUCCCCAGGGAAGGAAACUGUGGAAUUCUCGGGUGCCAA | 0.471 |
| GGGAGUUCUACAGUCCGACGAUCCAGUCUGGUCUCAAACUCCCGGCCUCAAGCAAUCCUCCCACUGGCCUCACAAUGUUGGGAUUACAGGUAUAAGCCACUGCACACGGCCUUACUAUGCUAUCAAUUCCAUAUGGAAUUCUCGGGUGCCAA | 0.549 |
| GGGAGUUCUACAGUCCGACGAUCAAAAUAAAUAUUUUUGGUAUUUAUUUAUGAAAUAUUUGAACAUUUUUUCAAUAAUUCCUUUUUACUUCUAGGAAGUCUCAAAAGACCAUCUUAAAUUAUUAUAUGUUUGGUGGAAUUCUCGGGUGCCAA | 0.828 |

Set 2 — method: protein-binding microarray; form: double-stranded DNA, one strand shown; sample: in vitro; tested at: not given; reading: higher = stronger binding
Target: TATA-box-binding protein 1 (TBP1, Arabidopsis thaliana, UniProt P28147, residues 1-200, full length assumed)
Notes: k-mer, scored over probes, only values ≥0.25
Residues (chain): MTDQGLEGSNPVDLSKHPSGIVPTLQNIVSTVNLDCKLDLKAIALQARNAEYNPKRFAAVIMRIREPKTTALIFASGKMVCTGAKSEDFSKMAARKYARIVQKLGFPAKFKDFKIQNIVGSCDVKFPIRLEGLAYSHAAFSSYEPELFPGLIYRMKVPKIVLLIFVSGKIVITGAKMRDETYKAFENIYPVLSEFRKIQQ
| Strand | E-score |
| --- | --- |
| AATATCA | 0.306 |
| AAAAAAC | 0.251 |
| ATATGGG | 0.283 |
| ACATTAT | 0.313 |
| AATACAT | 0.269 |
| ATTAAAC | 0.312 |
| TAGATAA | 0.298 |
| CTTAAGA | 0.35 |
| CAATTTA | 0.377 |
| ATAATGC | 0.25 |
| ATTTATC | 0.383 |
| AAATATA | 0.472 |
| ATAATGA | 0.296 |
| ATAAGCA | 0.267 |
| ATATGAT | 0.349 |
| AGAATAT | 0.306 |

Set 3 — method: protein-binding microarray; form: double-stranded DNA, one strand shown; sample: in vitro; tested at: 0.8 µM; notes: whole 60-bp probe, no competitor; reading: higher = stronger binding
Target: Centromere-binding protein 1, full length, N-terminal tag (CBF1, Saccharomyces cerevisiae, UniProt P17106, residues 1-351)
UniProt P17106, sequence (whole entry, looked up): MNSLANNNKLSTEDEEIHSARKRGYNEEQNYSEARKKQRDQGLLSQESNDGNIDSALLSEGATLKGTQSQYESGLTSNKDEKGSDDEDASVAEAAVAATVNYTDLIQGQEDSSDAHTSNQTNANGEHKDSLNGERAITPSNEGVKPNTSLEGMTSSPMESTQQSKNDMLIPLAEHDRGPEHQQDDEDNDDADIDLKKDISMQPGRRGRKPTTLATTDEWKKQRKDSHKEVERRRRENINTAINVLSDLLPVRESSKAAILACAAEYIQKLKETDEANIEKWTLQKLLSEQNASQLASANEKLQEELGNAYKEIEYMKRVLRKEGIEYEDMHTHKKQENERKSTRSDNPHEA
| Strand | fluorescence intensity [a.u.] |
| --- | --- |
| CTAGAACAAGGTTAGACGGTGACGTTTAGGCGCTTCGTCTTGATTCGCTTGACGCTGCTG | 499 |
| GAAGGTTCATTCCTAATTGTGACCAATGTAATATAGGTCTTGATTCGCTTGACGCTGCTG | 543 |
| GAAATGATGCGGGATGGCGTGAACAAACCCATTTAGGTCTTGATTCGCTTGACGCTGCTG | 556 |
| CTAGTATGAAGATAACGCGTGGTTCCGTGGAAATTCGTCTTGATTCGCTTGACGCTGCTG | 509 |
| GAATAGCAAAAAAAAATGGTGATGAAAAGGTTATAGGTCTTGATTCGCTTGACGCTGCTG | 505 |
| CCTAACTACTATACGCCCGTGCAATAGCTTCGTACAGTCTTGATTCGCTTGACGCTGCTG | 551 |
| CTACTATTTTTCTATCACGTAAGTTGACATTTGTTCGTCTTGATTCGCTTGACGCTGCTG | 651 |
| TGTACGAAGCTATCTCACGCTGATATAGTAGTTAGGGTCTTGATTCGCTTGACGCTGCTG | 511 |
| CTACCAGAGCTTCATGAGACCAAGGAAGGAACGTTCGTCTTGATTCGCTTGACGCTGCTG | 503 |
| CCTAACTACTATACGCATGTGTTATAGCTTCGTACAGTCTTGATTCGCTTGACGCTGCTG | 623 |
| CCTAACTACTATAGCTAGCTGATATAGCTTCGTACAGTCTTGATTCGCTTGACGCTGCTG | 524 |
| CTAAAAAAAGCCAATCACGTGATCAGGAAGATTTTCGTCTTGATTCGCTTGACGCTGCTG | 48700 |
| GAATTGATCACAATGCACGGAGACGCCCATTAATAGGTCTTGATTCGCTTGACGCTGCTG | 553 |
| CTAAGGATAGGCAATGGTGACACTTCAACGCAATTCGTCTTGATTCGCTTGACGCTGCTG | 561 |
| GAAGTGCTCATAAGCCACGTCACAGAAAACGATTAGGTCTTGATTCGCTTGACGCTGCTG | 509 |
| CTAGCATTGCACCTTGTCGTGATGTATTCTAAGTTCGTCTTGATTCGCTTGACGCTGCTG | 600 |
| GAAATATTGCGAAGTGACGTCAAGAATCGACTTTAGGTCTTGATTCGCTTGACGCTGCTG | 540 |
| CTAGATTCTTATAATCACGTATGAACATTCTTATTCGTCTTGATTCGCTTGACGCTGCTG | 577 |

Set 4 — target: JUNB, bZIP domain (human); method: DHFR protein complementation; sample: yeast; relative to: wild-type JUN-FOS pair; reading: higher = stronger binding
Notes: single substitutions, most at no-binding floor
Starting sequence: JUN, bZIP domain (human); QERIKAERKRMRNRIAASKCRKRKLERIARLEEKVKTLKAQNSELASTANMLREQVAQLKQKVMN; partner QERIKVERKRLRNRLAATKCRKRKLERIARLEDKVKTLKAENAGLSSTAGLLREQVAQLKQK
| Substitution | binding fitness |
| --- | --- |
| E44I | -1.16 natural log |
| S43I | -0.943 natural log |
| E32A | -1.26 natural log |
| S43A | -0.804 natural log |
| N42D | -1.51 natural log |
| V56W | -1.43 natural log |
| A40P | -1.51 natural log |
| L52A | -1.55 natural log |
| K39L | -1.06 natural log |
| K39G | -1.38 natural log |
| L52M | -1.42 natural log |
| K34L | -0.951 natural log |
| E33A | -1.12 natural log |
| E33Q | -1.21 natural log |

Set 5 — target: CCNB3, cyclin fold, Cln2 fusion (human); method: yeast growth competition, sequencing; sample: yeast; notes: strong parent motif; relative to: not given; reading: higher = stronger binding
Starting sequence: TICRR docking peptide (human); TKVRRNLFNQELL; partner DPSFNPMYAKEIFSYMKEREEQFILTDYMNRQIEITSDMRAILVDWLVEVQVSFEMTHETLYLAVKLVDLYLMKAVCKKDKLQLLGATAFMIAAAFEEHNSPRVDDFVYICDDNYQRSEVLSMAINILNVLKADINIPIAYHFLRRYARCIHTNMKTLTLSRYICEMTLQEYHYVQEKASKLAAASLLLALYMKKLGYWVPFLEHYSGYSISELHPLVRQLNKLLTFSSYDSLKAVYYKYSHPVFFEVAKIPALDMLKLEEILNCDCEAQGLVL
| Substitution | normalised enrichment score |
| --- | --- |
| R5A | 0.133 |
| R5K F8L | 0.274 |
| E11A | 0.898 |
| T1A | 1.14 |
| R5K | 0.497 |
| R5A L7A | -0.0953 |
| L13A | 1.33 |
| L7A | -0.266 |
| R4A | 0.117 |

Other studies, line by line
| Substance | target | test | system | setting | how to read | measurement | result |
| --- | --- | --- | --- | --- | --- | --- | --- |
| PhoQ, residues 284 288 289 292 302 303 SMMNNA | PhoP, residues 12 14 15 18 19 LWHVM (Escherichia coli, UniProt P23836) | Sort-seq, measured: YFP reporter | E. coli | PhoQ-PhoP variant library, added: 10 µM Mg2+ | relative to: high Mg2+ state, higher = stronger signaling | fold induction | 5.6 |
